Assay results pooled from the literature.
Compare with care: the assays were run in different laboratories. Several values in a cell are separate wells, animals, samples, runs or records. ± gives the spread as reported.

Nc1cccc2c1CN(C1CCC(=O)NC1=O)C2=O (stereo not shown) has a viability of 4% (bone marrow CD138+ myeloma cells; XTT; 3 µM, mean of three patients).
For CC(NC(=O)c1ccccc1/N=C/c1c(O)ccc2ccccc12)c1ccccc1 (stereo not shown), the viability was 122% (HBL-1; 0.5 µM, 120 h).
COc1cc2ncnc(Nc3ccc(Oc4ccccc4)cc3C)c2cc1OC gave a viability of 80.3% (NCI-H2087 (BRAF L597V); resazurin; 1 µM, 72 h, together with: trametinib 0 nM).
For CCCOc1ccn2c(C(C)=O)cc(-c3ccccc3S(C)(=O)=O)c2c1, the viability was 113% (HBL-1; 0.5 µM, 120 h).
Oc1ccccc1-c1n[nH]cc1-c1ccnc2ccccc12: “log2 fold change” 0.26 (BCK1 (Candida albicans); kinase binding, MIB/MS competition; Candida albicans lysate; 10 µM; baseline: DMSO).
CCCCCCCc1c(C)[nH]c2cc(OC)ccc2c1=O has an IC50 of 57 ± 1 nM (Plasmodium yoelii; 17XL; 384-well).
For Cn1cc(-c2ccc(-c3cncc(Cl)c3N3CCC4(CCNC4=O)CC3)cc2)cn1, “fold change in expression” read -2.41 (COLO 205; microarray, item: PAH; concentration not given, 6 h; baseline: untreated cells).
The viability of O=P(O)(O)C(O)(Cn1ccnc1)P(=O)(O)O is reported as 95 ± 1% (MDA-MB-231; AlamarBlue; 7.5 µM, 48 h; baseline: control).
With COc1cc2ncnc(Nc3ccc(Oc4ccccc4)c(C)c3C)c2cc1OC the viability was 95.5% (NCI-H2087 (BRAF L597V); resazurin; 0.3 µM, 72 h, together with: trametinib; baseline: DMSO).
With Cc1cccc(-c2[nH]c(CNc3ccccc3F)nc2-c2ccc3ncnn3c2)n1 the viability was 44% (MM1.S; XTT; 1.5 µM; baseline: untreated).
The IC50 of Cc1[nH]c(C)c(-c2ccc(OCCOc3ccc(C(F)(F)F)cn3)cc2)c(=O)c1Br is reported as 101 ± 25 nM (Plasmodium yoelii; 17XL; 384-well).
With COc1ccc(CCc2nc3cc(-c4c(C)noc4C)ccc3n2C[C@H](C)N2CCOCC2)cc1Cl the viability was 93.9% (HBL-1; 1 µM, 120 h).
Nc1cccc2c1C(=O)N(C1CCC(=O)NC1=O)C2=O (stereo not shown) gave a viability of 16% and 31% and 29% (MM1.S; XTT; 1.5 µM).

Repeated from above:
For CCCOc1ccn2c(C(C)=O)cc(-c3ccccc3S(C)(=O)=O)c2c1, the viability was 113% (HBL-1; 0.5 µM, 120 h).
